Experimental data gathered from unrelated publications.
Every numbered part comes from another study and shows a few of its results, in no order. Positions count from the first letter of the parent shown.

Study 1
Target: Centromere-binding protein 1, full length, N-terminal tag (CBF1, Saccharomyces cerevisiae, UniProt P17106, residues 1-351)
Chain of UniProt P17106 (whole entry, looked up): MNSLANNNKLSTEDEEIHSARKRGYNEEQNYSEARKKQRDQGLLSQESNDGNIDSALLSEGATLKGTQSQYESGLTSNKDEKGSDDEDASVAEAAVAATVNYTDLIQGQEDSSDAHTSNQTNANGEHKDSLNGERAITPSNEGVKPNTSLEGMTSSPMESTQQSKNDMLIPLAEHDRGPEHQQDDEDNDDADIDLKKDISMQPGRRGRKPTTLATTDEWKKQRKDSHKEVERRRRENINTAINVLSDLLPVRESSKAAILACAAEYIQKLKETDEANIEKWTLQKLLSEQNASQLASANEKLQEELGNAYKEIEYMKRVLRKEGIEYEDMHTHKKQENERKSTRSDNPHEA
Method: protein-binding microarray
Molecule type: double-stranded DNA, one strand shown
Matrix: in vitro
Tested at: 0.8 µM
Notes: whole 60-bp probe, no competitor
Direction: higher = stronger binding
Measurement: fluorescence intensity
Shared flanks, not repeated: … GTCTTGATTCGCTTGACGCTGCTG
CTAGTTTACACCAATCGCGTGGGGCAAGGGGCTTTC: 520 a.u.
CTATCATATTCGTTAATCGTGATGAGAATACTATTC: 647 a.u.
TGTACGAAGCTATCCCACCTGCATATAGTAGTTAGG: 469 a.u.
CTACCCAATAAACGTGGTACTTGTCGAGTAGTCTTC: 552 a.u.
CTAAGTGTTTCAACAAACGTGATGTTGTATATGTTC: 1140 a.u.
CTAAGCAGTTTCCATCAGCTATTTATGTTACGATTC: 529 a.u.
CCTAACTACTATACACATGTTTGATAGCTTCGTACA: 595 a.u.
CTACTATCAAAGCGAAAGGTGACCTTTTTATCGTTC: 563 a.u.
GAATCATCTACCATCCACATGCTTGCTTTACTCTAG: 578 a.u.
GAAATTTCTATCCCACTCGTGAGTAATGGCTTATAG: 520 a.u.
GAATTAATGTCCTGTCACGGATAGTCAATAATCTAG: 611 a.u.
GAAAAGAAATAGAGATCGGTGACGTTTGACGCTTAG: 512 a.u.
CTATATAATACTCAACACGTGACTTCAGCCTTCTTC: 13900 a.u.
CTAGTTCTTTGCGAGCATGTGCTATACAGTCTTTTC: 910 a.u.
CTACAGGACAGTTTGCACGTTATCAGATAAACTTTC: 1040 a.u.
CTAGATTCACGTGATATTCACGTGCATAAACCATTC: 19500 a.u.
CTATTTCTTCTGTGTCACACGTTGTGCTTGCCATTC: 643 a.u.
CTAACAAGACAATCCAACGTGCGCAAAATGGATTTC: 566 a.u.

Study 2
Target: CCND3, cyclin fold, Cln2 fusion (human)
Method: yeast growth competition, sequencing
Matrix: yeast
Notes: weak parent motif
Baseline: not given
Direction: higher = stronger binding
Measurement: normalised enrichment score
Starting sequence: PKN2 docking peptide (human); DSTVTKLDFDLEP
DSTVTKLAFDLEP [D8A]: -0.286
DSAVTKLDFDLEP [T3A]: -0.197
DATVTKLDFDLEP [S2A]: -0.317
ASTVTKLDFDLEP [D1A]: -0.208
DSTVTALDFDLEP [K6A]: -0.152
DSTVTKLDFDLAP [E12A]: -0.31
DSTVTKLDADLEP [F9A]: -0.132

Study 3
Target: DBP, bZIP domain (human)
Method: DHFR protein complementation
Matrix: yeast
Notes: single substitutions, most at no-binding floor
Baseline: wild-type JUN-FOS pair
Direction: higher = stronger binding
Measurement: binding fitness
Starting sequence: JUN, bZIP domain (human); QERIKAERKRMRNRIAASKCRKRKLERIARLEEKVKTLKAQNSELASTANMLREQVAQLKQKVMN; partner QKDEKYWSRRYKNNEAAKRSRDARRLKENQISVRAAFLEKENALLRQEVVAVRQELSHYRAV
L31E: -1.52 natural log
K36M: -1.47 natural log
L38C: -1.56 natural log
A40Q: -1.53 natural log
E33S: -1.53 natural log
L45R: -1.47 natural log
V35H: -1.5 natural log
A46F: -1.28 natural log
L59G: -1.52 natural log
L59F: -1.41 natural log
E33H: -1.25 natural log
Q41S: -1.47 natural log
K36R: -1.35 natural log
K34W: -1.48 natural log
A29T: -1.38 natural log
S47I: -1.41 natural log
A57T: -1.41 natural log
Q41L: -1.52 natural log
E44C: -1.46 natural log
E33I: -1.56 natural log
A49Y: -1.48 natural log
L52E: -1.47 natural log
I28T: -1.44 natural log
L45C: -1.54 natural log

Study 4
Target: Sox-I, HMG box (Salpingoeca helianthica)
Method: Spec-seq
Molecule type: double-stranded DNA, one strand shown
Matrix: in vitro
Tested at: not given
Notes: whole probe, mean of replicates
Baseline: not given
Direction: lower = stronger binding
Measurement: relative binding energy
Shared flanks, not repeated: GAGTCGTCTCGTCAGCAC … CCGTAGAGCACTCAGGTC
Target sequence (chain): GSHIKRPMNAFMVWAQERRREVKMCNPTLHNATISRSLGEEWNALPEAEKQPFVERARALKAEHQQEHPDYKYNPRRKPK
CTCAGTT: -0.0526 ln ratio
AATAGTT: -2.19 ln ratio
TCTTGTT: -1.04 ln ratio
CATTCGC: 1.1 ln ratio
CATGATA: 0.323 ln ratio
TTTAGTT: 0.124 ln ratio
TCACGTT: 0.747 ln ratio
CATCATA: 0.421 ln ratio
CGCGGTT: 1.08 ln ratio
TCTCGTT: 0.347 ln ratio
CATGCTT: 0.81 ln ratio
CATAGAC: 0.368 ln ratio
CATCTAC: 0.614 ln ratio

Study 5
Target: Prothrombin, mature alpha-thrombin (F2, Homo sapiens, UniProt P00734)
Method: aptamer microarray, sandwich
Molecule type: DNA with 2'F-ANA
Matrix: in vitro
Tested at: 200 nM
Notes: whole 15-mer aptamer, many near background
Added: Cy3 exosite-II aptamer, 400 nM
Direction: higher = stronger binding
Measurement: mean fluorescence intensity
Oligonucleotide: GGTTGGTGTGGTTGG
2'F-ANA at 1 2 5 7 10 13 14: 46.1 a.u.
2'F-ANA at 1 3 5 6 8 11 12 14: 45 a.u.
2'F-ANA at 3 4 6 7 8 9 11 13 15: 400 a.u.
2'F-ANA at 5 6 7 9 10 11 12 13 14: 49.5 a.u.
2'F-ANA at 1 3 4 6 7 10 12 13: 65.9 a.u.
2'F-ANA at 1 3 6 7 11 14: 76.7 a.u.
2'F-ANA at 1 2 3 7 8 10 12 13 14: 53.6 a.u.
2'F-ANA at 1 5 6 10 12 15: 56 a.u.
2'F-ANA at 2 3 5 8 11 15: 96.3 a.u.
2'F-ANA at 1 2 5 7 9 10 12 15: 49 a.u.
2'F-ANA at 2 3 6 10 14 15: 266 a.u.
2'F-ANA at 4 5 9 10 12 14: 227 a.u.
2'F-ANA at 1 3 7 10 13 14 15: 60.2 a.u.
2'F-ANA at 1 2 3 7 8 10 14 15: 54.2 a.u.
2'F-ANA at 3 6 8 9 12 13 15: 908 a.u.
2'F-ANA at 4 5 6 7 14 15: 98.5 a.u.
2'F-ANA at 1 4 6 8 14: 54.3 a.u.
2'F-ANA at 3 4 5 6 7 8 10 12 14: 51.3 a.u.
2'F-ANA at 1 2 4 5 10 11 15: 46.6 a.u.
2'F-ANA at 1 3 5 6 8 15: 66.7 a.u.
2'F-ANA at 2 4 8 10 11 13 14: 73.1 a.u.
2'F-ANA at 3 4 7 8 9 10 11 13 14: 219 a.u.
2'F-ANA at 1 2 5 6 8 10 12 14: 47.8 a.u.
2'F-ANA at 2 3 5 8 9 10 11 12: 64 a.u.
2'F-ANA at 4 7 9 11 12 14: 106 a.u.

Study 6
Target: ABI1, truncated, D143A, DHFR fusion (Arabidopsis thaliana)
Method: DHFR PCA, deep sequencing
Matrix: yeast
Notes: methotrexate growth selection, single substitutions
Added: (+)-ABA 1.4 µM
Baseline: wild-type fitted maximum
Direction: higher = stronger binding
Measurement: relative binding score
Starting sequence: PYL1, truncated, DHFR fusion (Arabidopsis thaliana); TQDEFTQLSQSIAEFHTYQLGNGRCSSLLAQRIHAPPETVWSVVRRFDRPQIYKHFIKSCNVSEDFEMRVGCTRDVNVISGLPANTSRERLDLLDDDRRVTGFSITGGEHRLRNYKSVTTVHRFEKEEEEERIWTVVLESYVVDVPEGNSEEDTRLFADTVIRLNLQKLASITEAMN
E127D: 71.7%
Q19N: 50.9%
R98E: 5.21%
R24I: 26.3%
R113M: 51.9%
V145N: -49.5%
K58E: 22.9%
P50M: -10.8%
Y53R: -5.1%
N61P: -1.23%
T86R: 33.6%
F124D: 45%
E129W: 26.9%
R90C: 6.8%
K116P: -8.87%
M68V: 39.8%

Other studies, line by line
PhoQ, residues 284 288 289 292 302 303 ASASEQ
fold induction (PhoP, residues 12 14 15 18 19 LHSVQ (Escherichia coli, UniProt P23836); Sort-seq, item: YFP reporter; E. coli; PhoQ-PhoP variant library, added: 10 µM Mg2+; baseline: high Mg2+ state, higher = stronger signaling): 1.27

Some of these lines once more (study 5):
2'F-ANA at 1 3 6 7 11 14: 76.7 a.u.
2'F-ANA at 1 3 7 10 13 14 15: 60.2 a.u.
2'F-ANA at 4 5 6 7 14 15: 98.5 a.u.
2'F-ANA at 2 3 5 8 11 15: 96.3 a.u.
2'F-ANA at 3 4 7 8 9 10 11 13 14: 219 a.u.
2'F-ANA at 1 2 3 7 8 10 14 15: 54.2 a.u.
2'F-ANA at 1 2 4 5 10 11 15: 46.6 a.u.
